{"data": "Literature values that unrelated publications cite", "note": "Each line is one published result; not all experiments were run side by side. ± marks the error that the study gave."}
{"Molecule": "guanidino-oseltamivir", "conditions": "pH 7.4", "quantity": "logD", "result": "0.31 ± 0.05"}
{"Molecule": "O=C1c2ccccc2C(=O)C1(O)O", "quantity": "pKa", "result": "9.3 ± 0.1"}
{"Molecule": "CC(Cc1ccc(O)cc1)NCC(O)c1cc(O)cc(O)c1 (stereo not drawn)", "system": "product label", "conditions": "unit not given", "scale": "1 = listed, 0 = not listed", "quantity": "parkinsonism on label", "result": 0}
{"Molecule": "COC(=O)[C@@]12OC[C@]34[C@H]([C@@H](O)[C@@H]1O)[C@@]1(C)CC(=O)C(OC(=O)CNC(=O)OC(C)(C)C)=C(C)[C@@H]1C[C@H]3OC(=O)[C@H](OC(=O)C=C(C)C)[C@@H]24", "system": "mouse", "conditions": "10 mg/kg", "quantity": "survival", "result": "0%"}
{"Molecule": "Cc1cc(N(CCOS(C)(=O)=O)CCOS(C)(=O)=O)ccc1C(=O)O", "system": "plasma", "quantity": "half-life", "result": "~5 min"}
{"Molecule": "COC(=O)[C@@]12OC[C@]34[C@H]([C@@H](O)[C@@H]1O)[C@@]1(C)CC(=O)C(OC(=O)C[C@H](C)N)=C(C)[C@@H]1C[C@H]3OC(=O)[C@H](OC(=O)C=C(C)C)[C@@H]24", "system": "mouse", "conditions": "10 mg/kg", "quantity": "survival", "result": "100%"}
{"Molecule": "CC(Cc1ccc(O)cc1)NCC(O)c1cc(O)cc(O)c1 (stereo not drawn)", "system": "human", "quantity": "placental transfer", "result": "≤ 90%"}
{"Molecule": "CCOC(=O)C1=C[C@@H](OC(CC)CC)[C@H](NC(C)=O)[C@@H](NC(=N)N)C1", "system": "rat", "conditions": "oral", "quantity": "oral bioavailability", "result": "2%"}
{"Molecule": "COc1cc2ccc(=O)oc2cc1O", "conditions": "phenol group", "quantity": "pKa", "result": "8 to 9"}
{"Molecule": "CSCC[C@@H]1NC(=O)[C@H](CC(C)C)NC(=O)[C@H](CCCNC(=N)N)NC(=O)[C@H](CO)NC(=O)[C@@H]2CSSC[C@@H]3NC(=O)[C@H](CO)NC(=O)CNC(=O)[C@H]([C@@H](C)O)NC(=O)[C@H](CSSC[C@H](N)C(=O)N[C@@H](CCCCN)C(=O)NCC(=O)N[C@@H](CCCCN)C(=O)NCC(=O)N[C@@H](C)C(=O)N[C@@H](CCCCN)C(=O)N2)NC(=O)[C@H](CSSC[C@@H](C(N)=O)NC(=O)[C@H](CCCCN)NC(=O)CNC(=O)[C@H](CO)NC(=O)[C@H](CCCNC(=N)N)NC3=O)NC(=O)[C@H](CC(=O)O)NC(=O)[C@H](Cc2ccc(O)cc2)NC1=O", "system": "plasma", "conditions": "total", "quantity": "Cmax", "result": "50 nM"}
{"Molecule": "CO[C@]12CC[C@@]3(C[C@@H]1C(C)(C)O)[C@H]1Cc4ccc(O)c5c4[C@@]3(CCN1CC1CC1)[C@H]2O5", "system": "brain", "quantity": "unbound fraction", "result": 0.309}
{"Molecule": "cisplatin", "system": "several species", "quantity": "LDLo", "result": "< 10 mg/kg"}
{"Molecule": "CC(Cc1ccc(O)cc1)NCC(O)c1cc(O)cc(O)c1 (stereo not drawn)", "system": "human", "quantity": "fraction absorbed", "result": "60%"}
{"Molecule": "CN1CC[C@]23c4c5ccc(O)c4O[C@H]2[C@@H](O)C=C[C@H]3[C@H]1C5", "assay": "hypothermia", "system": "rat", "conditions": "subcutaneous", "quantity": "hypothermic dose", "result": "> 32 mg/kg"}
{"Molecule": "C[C@H](Cc1ccc(O)c(O)c1)[C@@H](C)Cc1ccc(O)c(O)c1", "assay": "experimental", "quantity": "logP", "result": 5.8}
{"note": "A few entries again:"}
{"Molecule": "CCOC(=O)C1=C[C@@H](OC(CC)CC)[C@H](NC(C)=O)[C@@H](NC(=N)N)C1", "system": "rat", "conditions": "oral", "quantity": "oral bioavailability", "result": "2%"}
{"Molecule": "COc1cc2ccc(=O)oc2cc1O", "conditions": "phenol group", "quantity": "pKa", "result": "8 to 9"}
